{"data": "Results collected from several papers", "note": "Parts stem from different laboratories: compare values within a part only."}
{"data": "Study 1", "target": "Interferon regulatory factor 3, full length, phosphomimetic (IRF3, Homo sapiens, UniProt Q14653, residues 1-427, S386D/S396D/S398D/S402D/T404D/S405D)", "technique": "protein-binding microarray", "form": "double-stranded DNA, one strand shown", "sample": "in vitro", "tested at": "2540 nM top", "notes": "60-bp whole probe", "together with": "salmon DNA 0.4 mg/ml", "reference": "random background probes", "direction": "higher = stronger binding", "Target sequence (chain)": "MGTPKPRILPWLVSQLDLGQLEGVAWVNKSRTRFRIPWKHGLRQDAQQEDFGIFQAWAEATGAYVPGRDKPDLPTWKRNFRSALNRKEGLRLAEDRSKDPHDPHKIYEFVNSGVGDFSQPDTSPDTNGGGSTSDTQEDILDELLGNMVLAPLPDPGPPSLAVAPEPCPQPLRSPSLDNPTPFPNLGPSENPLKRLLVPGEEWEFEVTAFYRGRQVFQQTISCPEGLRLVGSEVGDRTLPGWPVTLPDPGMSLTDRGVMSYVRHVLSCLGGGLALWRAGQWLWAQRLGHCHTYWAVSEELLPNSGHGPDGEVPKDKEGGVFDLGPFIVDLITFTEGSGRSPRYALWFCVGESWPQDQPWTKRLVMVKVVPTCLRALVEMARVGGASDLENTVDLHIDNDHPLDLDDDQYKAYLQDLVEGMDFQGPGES"}
{"Sequence": "GCCTAGCACCTAGTTTCCATTTTCAGAATGTGCTAGGTCTTGATTCGCTTGACGCTGCTG", "fitted relative affinity [z-score]": 10.4}
{"Sequence": "GCCTAGCACGACGATTTCGGGTATCGAGATGTGCTAGTCTTGATTCGCTTGACGCTGCTG", "fitted relative affinity [z-score]": 1.87}
{"Sequence": "GCCTAGCACGACGGCCTCGGTATCGGGACGTGCTAGGTCTTGATTCGCTTGACGCTGCTG", "fitted relative affinity [z-score]": -0.0918}
{"Sequence": "GCCTAGCACTTAGGTTTCGGGACTGGGATAGTGCTAGTCTTGATTCGCTTGACGCTGCTG", "fitted relative affinity [z-score]": 4.35}
{"data": "Study 2", "target": "Centromere-binding protein 1, full length, His-tagged (CBF1, Saccharomyces cerevisiae, UniProt P17106, residues 1-351)", "technique": "competition protein-binding microarray", "form": "double-stranded DNA, one strand shown", "sample": "in vitro", "tested at": "2 µM", "notes": "whole 60-bp probe, lowest competitor level", "together with": "Pho4 competitor, 0.05 µM", "direction": "higher = stronger binding", "chain of UniProt P17106 (whole entry, looked up)": "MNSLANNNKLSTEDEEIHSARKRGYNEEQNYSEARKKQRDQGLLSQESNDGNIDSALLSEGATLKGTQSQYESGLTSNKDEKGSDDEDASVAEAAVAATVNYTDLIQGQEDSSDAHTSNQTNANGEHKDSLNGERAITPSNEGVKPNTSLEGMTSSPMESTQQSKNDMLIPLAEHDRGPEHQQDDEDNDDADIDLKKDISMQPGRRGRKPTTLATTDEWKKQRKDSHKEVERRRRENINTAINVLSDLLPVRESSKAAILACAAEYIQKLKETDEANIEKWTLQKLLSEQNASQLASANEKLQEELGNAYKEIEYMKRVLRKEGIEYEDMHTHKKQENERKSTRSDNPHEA"}
{"Sequence": "AAAGCGGTAATTTGGGGAGTGGGTGCAGATATCTATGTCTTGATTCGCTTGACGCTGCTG", "fluorescence intensity [a.u.]": 75}
{"Sequence": "CGTCCTAGTGATTGTCACCTCACTTCCATGAGGAAGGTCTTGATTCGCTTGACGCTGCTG", "fluorescence intensity [a.u.]": 81.7}
{"Sequence": "CTATTCAGGTTTCTGGGCGTGGGACAGTTGGTAACAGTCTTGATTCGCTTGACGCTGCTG", "fluorescence intensity [a.u.]": 65.9}
{"Sequence": "TTTTGCTAAAATGAACTTGTGTCGCAAATTCCGTTCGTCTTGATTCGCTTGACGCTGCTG", "fluorescence intensity [a.u.]": 73.2}
{"Sequence": "TCGGTGGGTAAGCGTCACAATTTCGTCCACCAGTACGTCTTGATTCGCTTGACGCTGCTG", "fluorescence intensity [a.u.]": 68.1}
{"data": "Study 3", "target": "TAR DNA-binding protein 43, full length, His tag (TARDBP, Homo sapiens, UniProt Q13148, residues 1-414)", "technique": "RNA Bind-n-Seq", "form": "RNA", "sample": "in vitro", "tested at": "20 nM", "notes": "6-mer, flanks averaged, single round", "together with": "150 mM LiCl", "reference": "input library", "direction": "higher = stronger binding"}
{"Sequence": "CUCGAA", "6-mer enrichment (R)": 0.781}
{"Sequence": "CGCUUA", "6-mer enrichment (R)": 0.888}
{"Sequence": "CGUUCC", "6-mer enrichment (R)": 0.895}
{"Sequence": "CCUAAC", "6-mer enrichment (R)": 0.858}
{"Sequence": "AUUUCC", "6-mer enrichment (R)": 0.958}
{"Sequence": "UGGUCA", "6-mer enrichment (R)": 0.914}
{"data": "Single results of other studies"}
{"Substance": "PhoQ, residues 284 288 289 292 302 303 SCEHLI", "target": "PhoP, residues 12 14 15 18 19 SMASL (Escherichia coli, UniProt P23836)", "test": "Sort-seq, refers to: YFP reporter", "test system": "E. coli", "setting": "PhoQ-PhoP variant library, together with: 10 µM Mg2+", "scale": "reference: high Mg2+ state, higher = stronger signaling", "measurement": "fold induction", "result": 7.8}
{"note": "Excerpt of the above (study 2):"}
{"Sequence": "TTTTGCTAAAATGAACTTGTGTCGCAAATTCCGTTCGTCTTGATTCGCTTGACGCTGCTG", "fluorescence intensity [a.u.]": 73.2}
